Assay results from different studies.
A part holds a random share of what one study measured.

Block 1 — method: EMSA with sequencing; molecule type: double-stranded DNA, one strand shown; medium: in vitro; concentration: 10 and 20 nM; relative to: negative control set to 0; reading: higher = stronger binding
Target: Hepatocyte nuclear factor 3-alpha (Foxa1, Mus musculus, UniProt P35582, residues 1-468, full length assumed)
Sequence of UniProt P35582 (whole entry, looked up): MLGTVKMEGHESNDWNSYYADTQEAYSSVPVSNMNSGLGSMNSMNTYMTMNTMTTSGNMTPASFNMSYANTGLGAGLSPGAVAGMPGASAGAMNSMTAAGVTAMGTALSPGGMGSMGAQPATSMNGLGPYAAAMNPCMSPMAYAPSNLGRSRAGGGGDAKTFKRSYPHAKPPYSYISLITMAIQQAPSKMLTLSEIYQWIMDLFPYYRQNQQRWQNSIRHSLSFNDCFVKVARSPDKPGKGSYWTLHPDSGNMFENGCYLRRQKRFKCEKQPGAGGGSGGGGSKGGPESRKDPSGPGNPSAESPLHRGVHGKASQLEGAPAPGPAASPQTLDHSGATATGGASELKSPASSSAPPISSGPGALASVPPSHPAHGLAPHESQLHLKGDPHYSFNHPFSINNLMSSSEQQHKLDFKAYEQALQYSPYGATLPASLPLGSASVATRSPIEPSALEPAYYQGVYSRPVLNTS
Setting: whole designed probe, mean of two concentrations, ends assumed
Strand	normalised bound fraction
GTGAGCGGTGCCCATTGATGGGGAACTGAGCCCTTGAATTTCCAATTTTCCCTTTGTCTCCCATTCTTAATATTTCTCAAAAAAATTCAATTATTCCCTCTCTTAAAATAAACTCAATGTAAACAGGGTATATAAACTATGGATCACAATTGAATGAAACATTCTGCAAATATTGAAAATTATCTGTCTAATCTATATATTGATGATAGGAAATGTATTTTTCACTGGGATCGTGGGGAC	0.225 ratio
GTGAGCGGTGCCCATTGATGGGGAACAGTTTATAGATAGATGGATAAATATTTTTTACATGGAGAAGGCGTAATAGGAAATATCATACTGATTATGAAGTACTTTCAAAACATTGACAATGTAATCTAATATTAATTAATAGGAGACAAGCATATTAAATGAATCCAGTATAATTGGTGTTACACTGGTGCAAAGTATTGAATGTTTGCTTCCCCACCCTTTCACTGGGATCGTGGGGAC	0.0553 ratio
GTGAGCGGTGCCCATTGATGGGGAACTTTAATTTTGCCCTATGTAAACTTGCTCAGCTGTAAACAAACAAGCCATCATGGAGACTAGATCAAATAATAAGCTCGTTGACTCCACGCTAGAGTAATCTAGGACATCAGAGTAAGTCATAGCCCTACAGATGTTAGACAAAAGGAAGGATTTTTACGTCTTTATTGATGTAAATTACATACTGTAGGAGTCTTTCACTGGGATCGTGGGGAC	0.394 ratio
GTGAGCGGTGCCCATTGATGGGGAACATCTTCCCCCTCTTCCTTGCCCCACCAGCTCACCTTCCCGGGTATCTGCAAATAAGTATTTATTTTCAAGCCGGCATTCGTTAACCCTCTTCACGCGCATACTGCCAGAGCAAACAGATCTAACATGGTCCTTTGGCGACGCCAGGCTCCGGGAGAGCAAAGCACCGTGTCAGGGCCATGATCCGGGGTGGCCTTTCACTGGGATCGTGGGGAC	0.252 ratio
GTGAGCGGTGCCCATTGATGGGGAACATCTTCCCCCTCTTCCTTGCCCCACCAGCTCACCTACGGGGGTTATTTGCAGATAGGAAAATAAATAAAGCCGGCATTCGTTAACCCTCTTCACGCGCATACTGCTGTTTGCTCTGCATCTAACATGGTCCTTACGCGACGCCAGGCTCCGGGAGAGCAAAGCACCGTGTCAGGCGCATGATCCGGGGTGGCCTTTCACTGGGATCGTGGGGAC	0.36 ratio

Block 2 — method: protein-binding microarray; molecule type: double-stranded DNA, one strand shown; medium: in vitro; concentration: 0.8 µM; setting: whole 60-bp probe, no competitor; reading: higher = stronger binding
Target: Centromere-binding protein 1, full length, N-terminal tag (CBF1, Saccharomyces cerevisiae, UniProt P17106, residues 1-351)
Sequence of UniProt P17106 (whole entry, looked up): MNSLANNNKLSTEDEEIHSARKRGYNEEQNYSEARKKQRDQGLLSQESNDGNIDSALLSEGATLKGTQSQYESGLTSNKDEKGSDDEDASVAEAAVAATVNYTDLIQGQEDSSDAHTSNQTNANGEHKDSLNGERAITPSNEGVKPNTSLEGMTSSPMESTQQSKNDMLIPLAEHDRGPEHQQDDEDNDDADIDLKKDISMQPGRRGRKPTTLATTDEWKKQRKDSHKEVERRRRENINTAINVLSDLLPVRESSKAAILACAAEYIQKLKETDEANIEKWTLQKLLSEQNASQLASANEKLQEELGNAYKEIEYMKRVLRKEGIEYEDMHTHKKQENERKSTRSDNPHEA
Strand	fluorescence intensity [a.u.]
CTATTCTTTCATTGTGACATCAAAATGTTTTTATTCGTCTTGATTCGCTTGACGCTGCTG	594
GAAGATGAGGACGATGCTGATGGTGAAGACTCCTAGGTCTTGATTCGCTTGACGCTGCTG	504
CTACAATGCTGCGATCACGAAAATTATCAACATTTCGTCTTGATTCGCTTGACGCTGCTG	600
CTACTTGGTTCGTGTCACGTAGTTACCTCACTCTTCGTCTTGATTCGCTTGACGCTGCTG	863
CTAGGCGCTTTCTATCAGCTGTCATCGATTTGATTCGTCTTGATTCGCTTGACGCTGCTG	632
GAAATAATTTAAAGATTCGTGCTTCTGGTATTCTAGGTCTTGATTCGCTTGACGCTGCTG	511
CTAGTGAGCGTGCGGCTGATGGTCCATCACGGTTTCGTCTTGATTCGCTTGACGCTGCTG	511
CTAAACCCACATCAGCACGAGTAGCGTACATAATTCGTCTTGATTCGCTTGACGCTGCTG	538
TGTACGAAGCTATGGCACGCCGATATAGTAGTTAGGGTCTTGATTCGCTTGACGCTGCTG	548
TGTACGAAGCTATTTCTGATGACTATAGTAGTTAGGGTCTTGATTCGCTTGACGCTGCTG	544
CTACATCAACACTTCAACAACACGTGTCTGTGATTCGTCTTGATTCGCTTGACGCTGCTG	9090
GAATTTTCGTTAAAGGTGATTACAGGCGGTGACTAGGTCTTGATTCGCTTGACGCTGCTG	570
GAATCAAATTGCGGTCACGTATATGCCAACGTTTAGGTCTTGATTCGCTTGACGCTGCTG	1090
CTAATGAAACGCCATCACCTATCGACTAGTATTTTCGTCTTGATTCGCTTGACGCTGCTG	520
CTACGCAGAAAATTTCAGGTGAGATAAGGTGCGTTCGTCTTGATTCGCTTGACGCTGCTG	519
GAACTTCCTCCGCATCAGCTGGGAAAGAGGCGTTAGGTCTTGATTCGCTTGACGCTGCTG	510
CTATCATAGAAAAACCACGTGAAAAAAAAAAAATTCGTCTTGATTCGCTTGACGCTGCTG	4360
TGTACGAAGCTATTGCACGAGAATATAGTAGTTAGGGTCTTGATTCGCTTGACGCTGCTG	594
GAAGTGAATAAGCTTCGGGTGACCCTTATGGCATAGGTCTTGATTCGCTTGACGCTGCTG	506

Block 3 — method: RNA Bind-n-Seq; molecule type: RNA; medium: in vitro; concentration: 1 µM; setting: whole 134-nt RNA, ends assumed; together with: 150 mM KCl; relative to: input library; reading: higher = stronger binding
Target: Ras GTPase-activating protein-binding protein 1, C-terminal RGG region (G3BP1, Homo sapiens, UniProt Q13283)
Sequence of UniProt Q13283 (whole entry, looked up): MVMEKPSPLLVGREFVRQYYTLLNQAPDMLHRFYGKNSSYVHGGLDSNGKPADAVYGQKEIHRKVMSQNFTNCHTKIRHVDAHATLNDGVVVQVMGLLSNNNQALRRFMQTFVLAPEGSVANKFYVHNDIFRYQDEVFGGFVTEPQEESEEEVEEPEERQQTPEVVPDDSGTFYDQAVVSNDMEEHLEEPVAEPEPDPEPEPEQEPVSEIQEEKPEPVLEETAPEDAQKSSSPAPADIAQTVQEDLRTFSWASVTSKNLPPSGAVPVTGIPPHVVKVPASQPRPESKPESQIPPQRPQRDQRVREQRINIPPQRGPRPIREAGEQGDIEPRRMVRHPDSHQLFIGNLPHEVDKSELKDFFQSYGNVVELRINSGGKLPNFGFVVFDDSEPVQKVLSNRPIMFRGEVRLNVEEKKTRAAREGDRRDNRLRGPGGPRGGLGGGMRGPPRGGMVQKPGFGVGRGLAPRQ
Strand	log2 enrichment
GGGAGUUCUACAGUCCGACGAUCUUGACCUAGAGGAUGAGACCAUUGAUGCCGAGGUCAUGAACUCUCUAGCAGUUACUAUGGAUGACUUCCGGGUAAGGACCACACCCGUGCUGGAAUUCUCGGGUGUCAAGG	-2.35
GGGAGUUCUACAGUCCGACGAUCUCCUCAAGUCCUGUGCUACACAUCGUAUGUACCGAAUCGGUGGUGGUGGGGAAAGUAUUAUGUUACGCCGUUCGGAUCUGCACUUCCAGCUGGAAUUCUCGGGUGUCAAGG	-0.45
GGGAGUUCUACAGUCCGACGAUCUGGGAGGUGGAUUUUGUUUAUUUUUUUAGCUCAUUUCCAGGGGUGGGAAUUUUUCUUUAAUAUGUGUCAUGAAUAAAGUUGUUUUUGAAAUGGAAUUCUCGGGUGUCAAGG	3.05
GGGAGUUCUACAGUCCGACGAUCCCUGUGCUACACAUCGUAUGUACCGAAUCGGAAAAAAAGGAAAAAAAGGGGAAAAAAAGGGAAAGUAUUAUGUUACGCCGUUCGGAUCUGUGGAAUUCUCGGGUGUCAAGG	-1.86
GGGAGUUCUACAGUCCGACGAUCCCUCAAGUCCUGUGCUACACAUCGUAUGUACCGAAUCGGCGGGGCGGGCGGGGAAAGUAUUAUGUUACGCCGUUCGGAUCUGCACUUCCAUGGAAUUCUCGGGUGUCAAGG	0.727
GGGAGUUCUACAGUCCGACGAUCAAGUCCUGUGCUACACAUCGUAUGUACCGAAUCGGGCCCCGGCCCCGGGGCCCCGGGAAAGUAUUAUGUUACGCCGUUCGGAUCUGCACUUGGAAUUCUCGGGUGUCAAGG	-2.37

Block 4 — method: RNA Bind-n-Seq; molecule type: RNA; medium: in vitro; concentration: 365 nM; relative to: no-protein control; reading: higher = stronger binding
Target: RNA binding protein fox-1 homolog 2, RRM domain, GST-SBP tag (RBFOX2, Homo sapiens, UniProt O43251-10, residues 100-194)
Setting: natural RNA segment, single round, ends assumed
Construct (chain): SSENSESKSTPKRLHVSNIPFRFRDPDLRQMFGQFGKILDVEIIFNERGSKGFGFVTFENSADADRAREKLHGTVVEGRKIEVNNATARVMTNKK
Strand	RBNS enrichment (R)
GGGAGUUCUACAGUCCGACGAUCGUUAAAUGAGGCAUUGUUUUCUUUAUUUAAGAUUGAGUUAUGACUUUAAAUGUUUAUGAGCUAGUUUAUGCCUCGGAAGACAUAAGGUUUCCCAUUCCAAUUUGAAUCUUUGGAAUUCUCGGGUGCCAA	0.514
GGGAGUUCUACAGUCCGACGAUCUUGGAUCGAAACAGAACCGUUUACCCACCUUUACAAACUAGAGAAUAAAGAUUUGGUUUUAGAACUAGUGGCUGGUGGUGUUCUUUUCUGUGAGAGCUGUGGUGAUGGGGUGGAAUUCUCGGGUGCCAA	0.423
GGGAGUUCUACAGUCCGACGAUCAGGGUAAGCUAGAGAGAAAAAGAAAGAACUGUCCGUCCCCCUUCCGCCUUCUCCCUUCUCUCACCCCCACCCUAGCCUCCACCAUCCCCGCACAAAGCGGCUCUAAACCUUGGAAUUCUCGGGUGCCAA	0.491
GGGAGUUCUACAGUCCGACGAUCCUGAUUCAAAAUGUGUCCACACUUCGUAGAGUCUAGAAUACUGGACUGUAGAGAAACUACUUUGAACCUGUGGUUGAAAACGAUGAAAUGUGAUAAAUCUUUUUGUAGUUUGGAAUUCUCGGGUGCCAA	0.258
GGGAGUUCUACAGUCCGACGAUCCCACAGGCCAGCACACGGUGGGGAAGGCAGGCCCAUGGCCUCCUGAGUUCAGAGGCAGCCGGAGCCUGGGGAGCCAUGCCCCAGGCCCUGUGACAUCCCCUCGCCCUGCAUGGAAUUCUCGGGUGCCAA	12.6
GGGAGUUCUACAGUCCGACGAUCAUCCUUACACUUCAUAAACUUUUGUCUCCACGUUGUUACCAUAUUUGGAGACAGAAACAGGAGUUUCUCCAAAUCCAAUGAAAACAUGGAAAAUUCAAGGAUUGUUUAAAUGGAAUUCUCGGGUGCCAA	0.276
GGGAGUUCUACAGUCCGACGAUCUGGAGAGUGGUGGGGAGCCCUACCUUGUAGCCUUCAGUGGAUGCUCUCCCCUUGGUCACCUCUGGAACAAACAGGUUCCUUCCCUGGGGUCCAUAGGGAGGGACCUCAUGUGGAAUUCUCGGGUGCCAA	0.23
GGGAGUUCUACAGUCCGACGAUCUUGCUUUUGACUCUAAGCAUAACAUGACAAACCUCUAAGGAUGUAAUUAAAUUUAUUUUAAAACUUUUAAACUUGUACAUUCCUUUUAAUUAUUUUCUUAUUUCUGCUUCUGGAAUUCUCGGGUGCCAA	1

A few entries again (block 4):
Strand	RBNS enrichment (R)
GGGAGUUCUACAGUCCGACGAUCUUGCUUUUGACUCUAAGCAUAACAUGACAAACCUCUAAGGAUGUAAUUAAAUUUAUUUUAAAACUUUUAAACUUGUACAUUCCUUUUAAUUAUUUUCUUAUUUCUGCUUCUGGAAUUCUCGGGUGCCAA	1
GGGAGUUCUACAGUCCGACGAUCUUGGAUCGAAACAGAACCGUUUACCCACCUUUACAAACUAGAGAAUAAAGAUUUGGUUUUAGAACUAGUGGCUGGUGGUGUUCUUUUCUGUGAGAGCUGUGGUGAUGGGGUGGAAUUCUCGGGUGCCAA	0.423
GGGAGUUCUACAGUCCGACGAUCCUGAUUCAAAAUGUGUCCACACUUCGUAGAGUCUAGAAUACUGGACUGUAGAGAAACUACUUUGAACCUGUGGUUGAAAACGAUGAAAUGUGAUAAAUCUUUUUGUAGUUUGGAAUUCUCGGGUGCCAA	0.258
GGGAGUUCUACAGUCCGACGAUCUGGAGAGUGGUGGGGAGCCCUACCUUGUAGCCUUCAGUGGAUGCUCUCCCCUUGGUCACCUCUGGAACAAACAGGUUCCUUCCCUGGGGUCCAUAGGGAGGGACCUCAUGUGGAAUUCUCGGGUGCCAA	0.23
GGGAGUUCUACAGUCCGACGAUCGUUAAAUGAGGCAUUGUUUUCUUUAUUUAAGAUUGAGUUAUGACUUUAAAUGUUUAUGAGCUAGUUUAUGCCUCGGAAGACAUAAGGUUUCCCAUUCCAAUUUGAAUCUUUGGAAUUCUCGGGUGCCAA	0.514
